Results of several laboratories.
Numbered parts are unrelated; each lists some results of a single study.

Set 1
Target: Replicase polyprotein 1ab, main protease (rep, Severe acute respiratory syndrome coronavirus 2, UniProt P0DTD1)
Read-out: enzyme activity
Mode: inhibitor
Tested at: 20 µM
Setting: hit confirmation, no DTT
SMILES	inhibition
CC(=O)[O][Pt]([NH2])([Cl])([Cl])([NH]C1CCCCC1)[O]C(C)=O	95.9%
CCn1c(-c2nonc2N)nc2cnc(Oc3cccc(NC(=O)c4ccc(OCCN5CCOCC5)cc4)c3)cc21	60.4%
CC(=O)[O][Hg][c]1ccccc1	100%

Set 2
Target: RNA binding protein fox-1 homolog 2, RRM domain, GST-SBP tag (RBFOX2, Homo sapiens, UniProt O43251-10, residues 100-194)
Method: RNA Bind-n-Seq
Form: RNA
Matrix: in vitro
Tested at: 365 nM
Setting: natural RNA segment, single round, ends assumed
Relative to: no-protein control
Reading: higher = stronger binding
Constant ends, left off below: GGGAGUUCUACAGUCCGACGAUC … UGGAAUUCUCGGGUGCCAA
Oligonucleotide	RBNS enrichment (R)
UGCUCUGCACCCCUCCCUUGGGAGGGAGACUUCAUGUGGUUUAUUGCGAGUUUUUUGUUUACUUUUCAGGUUUGUACUACAAGGUUUAAUAAUAAAAACAAAGUUUUUUG	0.419
UUACUGUGUUCUGCCCAGGCACCUGAUGAGGUACAUCCUGCAGUGCCUCUCUGUGCUUGGCUCUGGCAGAAGGCACCCAGUGACAUCAGGCAUCAGGCCCAGUGACAGUG	0.429
GUAUUGUUUGGCUUUCUGAGGGAUGUUAGUGCCAAACUUGUAUAGGAGUGGGGUGCUGUCUUCCACUGACACCCAGGUCCAGAAUCCUUGGUCUUGAGCCCCUGUCCUUU	0.39
GGUGACAUAUGUGCUUGUGGGCCACAGCUGGAGGAUGGCAAGCUUUCUGUUGUCCUCUGCCUAUGUGGAGUUGACAGGGUUUGGCCUGCAGAUGUGUCUGGACUUGAGCC	1.01
AGUCUUUAAACUUUCUCUUAAUUCUCUUAAAAUGAAAUAGGUAUAUCCAAUAGGUGAUGAAAUACAUUUUUUACAAACAUAGAUGCUUUUUAUUUGUAUGUUGAAUGUAC	0.495
UUCUCUCCUGGUUUGCAGCUGUCUUCAAAUCCCCCCAUGACCCGCUCUUCCCACUCCUUCAAGUUGCCCUCACAAACCAAUGUGGCAAGACUACUGGACUUGUAUCCAUG	0.652
AGGAGGGCCUGUGGUGACCUACUGCAUUGACCCACUCUGCCCCCGAGUGAACCGUGGAGCAGGCAGGAGCAUCCUUUGUCUCACCAAUUCCAGGAUUUAGGCCUUAUCAU	0.58
UUAAAAAAGCUCAAUGCAUUGUCUUGUGGAGGAUGAAUAGAUGUGAUCACUGAGACAGCCACUUGGUUUUUGGCUCUUUCAGAGAGGUCUCAGGUUCUUUCCAUGCAGAC	0.885

Set 3
Cell line: HEK-293T/ACE2
Tested at: 10 µM
Time: 16 h
Relative to: vehicle
Structure (SMILES)	viability [%]
Nc1nnc(-c2cccc(Cl)c2Cl)c(N)n1	103
C/C(=C\C(=O)OCCCCCCCCC(=O)O)C[C@@H]1OC[C@H](C[C@@H]2O[C@H]2[C@@H](C)[C@H](C)O)[C@@H](O)[C@H]1O	97.8
CN(C)CCC(c1ccc(Cl)cc1)c1ccccn1 (centres unmarked)	101
CCCNC(C)C(=O)Nc1ccccc1C (centres unmarked)	100

Set 4
Target: Histone acetyltransferase KAT6A, both winged helices, GST fusion (KAT6A, Homo sapiens, UniProt Q92794, residues 1-181)
Method: protein binding microarray
Form: double-stranded DNA, one strand shown
Matrix: in vitro
Tested at: not given
Setting: 8-mer, flanks averaged, mean of 2 arrays, mostly near background
Relative to: not given
Reading: higher = stronger binding
Construct (chain): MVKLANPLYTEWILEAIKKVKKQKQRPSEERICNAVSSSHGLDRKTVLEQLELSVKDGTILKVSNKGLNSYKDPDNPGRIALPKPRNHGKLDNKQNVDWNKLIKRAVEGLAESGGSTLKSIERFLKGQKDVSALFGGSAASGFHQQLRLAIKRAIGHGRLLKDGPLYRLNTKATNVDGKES
Oligonucleotide	E-score
ACAAATCG	0.0383
GATGAAGA	-0.0191
CTGTCTGA	-0.0371
TAGGGAAA	-0.151
TAAGGAGA	-0.0953
ATCAATTA	-0.0787
GAAGAGGC	0.0596
AACTATCG	-0.00788

Set 5
Target: Sal-like protein 4, full length isoform B (SALL4, Homo sapiens, UniProt Q9UJQ4-2, residues 1-616)
Method: universal PBM
Form: double-stranded DNA, one strand shown
Matrix: in vitro
Tested at: not given
Setting: 8-mer, flanks averaged, mean of replicates
Reading: higher = stronger binding
Oligonucleotide	E-score
ATCTTATC	0.226
AGTTCTCG	0.0594
ATGCAGTA	0.117
CTCCAAAC	-0.049
TAGGTCAA	0.128
CATCAAAA	0.126
GCCCCAAC	-0.141
AAGAAGGG	-0.108

Set 6
Target: Replicase polyprotein 1ab, nsp13 helicase (rep, Severe acute respiratory syndrome coronavirus 2, UniProt P0DTD1)
Mode: inhibitor
Tested at: 20 µM
Structure (SMILES)	inhibition
COc1cccc(OC)c1-c1cc(C(=O)NC(CC(C)C)C(=O)O)nn1-c1ccnc2cc(Cl)ccc12 (centres unmarked)	4.35%
OCCN1CCN(CCCN2c3ccccc3C=Cc3ccccc32)CC1	3.11%
COc1c2occc2c(OC)c2c(=O)cc(C)oc12	10.3%
CCOc1cc(N)c(Cl)cc1C(=O)NCC1CN(Cc2ccc(F)cc2)CCO1 (centres unmarked)	-2.65%
O=C(Nc1ccc(Cl)cc1)Nc1cccc(-c2cccc(N3CCCC3)n2)c1	2.29%
COC1CCN(C(=O)c2cc(Cc3n[nH]c(=O)c4ccccc34)ccc2F)CC1	12.3%
COC(=O)[C@@]12OC[C@]34[C@H]([C@@H](O)[C@@H]1O)[C@@]1(C)CC(=O)C(O)=C(C)[C@@H]1C[C@H]3OC(=O)[C@H](OC(=O)/C=C(\C)C(C)C)[C@@H]24	4.19%
CC#CC(=O)N1CCC[C@H]1c1nc(-c2ccc(C(=O)Nc3ccccn3)cc2)c2c(N)nccn12	2.5%
c1ccc(CCCCN2CCC(c3ccccc3)CC2)cc1	2.76%
CNc1nc(C)nc(N[C@H]2CCC[C@@H](C(=O)NCc3ccc(C#N)cc3C(F)(F)F)C2)n1	3.58%
COc1ccc2nc3cc(Cl)ccc3c(Nc3cc(CN4CCCC4)c(O)c(CN4CCCC4)c3)c2n1	84.6%
CN(C)Cc1ccc(-c2nc3cccc4c3n2CCNC4=O)cc1	6.83%
CCCCCCOc1nsnc1C1=CCCN(C)C1	7.07%
CN1C(C(=O)Nc2ccccn2)=C(O)c2sc(Cl)cc2S1(=O)=O	5.19%
O=C(O)[C@H](O)[C@@H](O)[C@H](O)[C@H](O)CO	0.75%
CC(C)Oc1cccc(-n2c(CCc3c[nH]c4ccc(Br)cc34)nc3ccccc3c2=O)c1	7.44%
Cc1c(O)cccc1C(=O)N[C@@H](CSc1ccccc1)[C@H](O)CN1C[C@H]2CCCC[C@H]2C[C@H]1C(=O)NC(C)(C)C	-5.94%
CC(=O)Oc1ccccc1C(=O)Nc1ncc([N+](=O)[O-])s1	3.07%
C[C@H](N=C(NC#N)Nc1cccc2ncccc12)c1ccccc1	-1.51%
NC(N)=NC(=O)c1cnccn1	-5.65%
c1nc(CC2CCNCC2)c[nH]1	3.71%
C[C@]12C=CC(=O)C=C1CC[C@@H]1[C@@H]2[C@@H](O)C[C@@]2(C)[C@H]1CC[C@]2(O)C(=O)COP(=O)(O)O	4.29%
CCCCOC(=O)c1cc2c(cn1)[nH]c1ccccc12	0.32%
O=C(CC(c1ccccc1)c1ccccc1)N1CCN(C(c2ccccc2)c2ccccc2)CC1	-1.87%
C[N@+]12CCCC[C@@H]1CCC(=C(c1cccs1)c1cccs1)C2 (racemic)	2.68%

A few entries again (set 6):
Structure (SMILES)	inhibition
NC(N)=NC(=O)c1cnccn1	-5.65%
C[C@H](N=C(NC#N)Nc1cccc2ncccc12)c1ccccc1	-1.51%
CCOc1cc(N)c(Cl)cc1C(=O)NCC1CN(Cc2ccc(F)cc2)CCO1 (centres unmarked)	-2.65%
